Measurements gathered from unrelated publications.
Numbered parts are unrelated; each lists some results of a single study. Several values in a cell are separate wells, animals, samples, runs or records.
Sequence of UniProt Q13153 (whole entry, looked up): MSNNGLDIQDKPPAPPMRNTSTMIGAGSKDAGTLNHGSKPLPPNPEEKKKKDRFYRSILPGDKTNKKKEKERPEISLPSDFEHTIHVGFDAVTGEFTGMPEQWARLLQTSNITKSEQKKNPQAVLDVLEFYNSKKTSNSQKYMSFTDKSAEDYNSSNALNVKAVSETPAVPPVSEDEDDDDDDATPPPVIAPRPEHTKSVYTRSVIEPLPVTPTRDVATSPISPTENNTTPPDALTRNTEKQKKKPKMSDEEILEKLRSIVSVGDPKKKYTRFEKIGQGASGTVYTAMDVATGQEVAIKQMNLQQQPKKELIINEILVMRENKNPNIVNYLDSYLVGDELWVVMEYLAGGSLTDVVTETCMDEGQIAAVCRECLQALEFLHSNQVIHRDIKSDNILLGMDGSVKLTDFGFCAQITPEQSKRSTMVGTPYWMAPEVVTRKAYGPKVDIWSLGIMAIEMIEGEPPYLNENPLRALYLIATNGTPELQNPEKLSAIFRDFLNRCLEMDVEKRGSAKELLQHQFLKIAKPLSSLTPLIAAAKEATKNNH
Sequence of UniProt Q14012 (whole entry, looked up): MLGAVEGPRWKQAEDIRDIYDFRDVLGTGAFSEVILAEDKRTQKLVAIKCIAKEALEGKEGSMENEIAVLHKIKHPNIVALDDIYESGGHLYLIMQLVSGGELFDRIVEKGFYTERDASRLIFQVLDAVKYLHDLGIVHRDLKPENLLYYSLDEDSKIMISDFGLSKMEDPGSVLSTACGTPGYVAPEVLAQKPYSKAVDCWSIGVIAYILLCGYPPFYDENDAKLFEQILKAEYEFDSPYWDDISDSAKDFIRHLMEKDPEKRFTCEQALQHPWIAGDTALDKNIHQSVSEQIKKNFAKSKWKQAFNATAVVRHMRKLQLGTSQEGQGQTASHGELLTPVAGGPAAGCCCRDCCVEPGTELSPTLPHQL
Sequence of UniProt P54753 (whole entry, looked up): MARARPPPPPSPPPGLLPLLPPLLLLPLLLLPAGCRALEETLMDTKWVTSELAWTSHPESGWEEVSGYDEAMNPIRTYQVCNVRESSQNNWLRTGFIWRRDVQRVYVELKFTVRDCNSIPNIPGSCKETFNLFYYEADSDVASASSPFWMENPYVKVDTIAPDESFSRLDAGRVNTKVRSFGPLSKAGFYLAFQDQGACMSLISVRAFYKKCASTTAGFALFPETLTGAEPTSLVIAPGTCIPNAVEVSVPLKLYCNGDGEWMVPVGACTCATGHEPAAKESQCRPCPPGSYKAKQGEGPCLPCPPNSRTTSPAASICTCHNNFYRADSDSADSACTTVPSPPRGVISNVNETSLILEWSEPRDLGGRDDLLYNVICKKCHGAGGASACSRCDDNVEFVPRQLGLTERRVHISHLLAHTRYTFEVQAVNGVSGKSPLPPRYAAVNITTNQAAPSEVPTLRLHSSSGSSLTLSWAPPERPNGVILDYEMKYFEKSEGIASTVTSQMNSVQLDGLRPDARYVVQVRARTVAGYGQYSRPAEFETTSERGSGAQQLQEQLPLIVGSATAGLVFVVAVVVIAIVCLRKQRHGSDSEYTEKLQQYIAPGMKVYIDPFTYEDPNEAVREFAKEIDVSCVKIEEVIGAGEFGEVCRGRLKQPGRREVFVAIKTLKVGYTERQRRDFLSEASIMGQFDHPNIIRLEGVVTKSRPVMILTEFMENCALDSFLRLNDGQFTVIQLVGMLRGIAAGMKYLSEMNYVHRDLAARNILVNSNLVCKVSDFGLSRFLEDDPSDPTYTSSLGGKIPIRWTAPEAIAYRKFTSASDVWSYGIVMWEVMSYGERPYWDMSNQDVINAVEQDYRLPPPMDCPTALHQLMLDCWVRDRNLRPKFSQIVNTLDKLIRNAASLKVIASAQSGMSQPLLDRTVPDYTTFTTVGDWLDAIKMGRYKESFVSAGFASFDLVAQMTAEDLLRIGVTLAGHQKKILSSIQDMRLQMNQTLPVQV
Sequence of UniProt P49760 (whole entry, looked up): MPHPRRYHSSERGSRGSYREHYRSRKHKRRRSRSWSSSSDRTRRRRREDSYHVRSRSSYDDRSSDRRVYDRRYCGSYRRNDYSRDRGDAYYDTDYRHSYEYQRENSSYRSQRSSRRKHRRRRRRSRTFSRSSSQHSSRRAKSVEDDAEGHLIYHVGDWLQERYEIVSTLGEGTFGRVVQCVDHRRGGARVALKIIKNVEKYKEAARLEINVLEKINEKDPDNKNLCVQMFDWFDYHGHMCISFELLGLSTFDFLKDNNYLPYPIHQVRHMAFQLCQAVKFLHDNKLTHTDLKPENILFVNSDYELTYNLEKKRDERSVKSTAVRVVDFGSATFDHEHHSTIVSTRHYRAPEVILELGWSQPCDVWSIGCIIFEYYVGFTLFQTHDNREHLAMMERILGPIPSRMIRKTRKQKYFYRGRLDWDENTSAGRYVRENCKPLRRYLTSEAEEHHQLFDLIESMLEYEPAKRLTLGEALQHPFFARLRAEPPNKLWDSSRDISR
Sequence of UniProt P42680 (whole entry, looked up): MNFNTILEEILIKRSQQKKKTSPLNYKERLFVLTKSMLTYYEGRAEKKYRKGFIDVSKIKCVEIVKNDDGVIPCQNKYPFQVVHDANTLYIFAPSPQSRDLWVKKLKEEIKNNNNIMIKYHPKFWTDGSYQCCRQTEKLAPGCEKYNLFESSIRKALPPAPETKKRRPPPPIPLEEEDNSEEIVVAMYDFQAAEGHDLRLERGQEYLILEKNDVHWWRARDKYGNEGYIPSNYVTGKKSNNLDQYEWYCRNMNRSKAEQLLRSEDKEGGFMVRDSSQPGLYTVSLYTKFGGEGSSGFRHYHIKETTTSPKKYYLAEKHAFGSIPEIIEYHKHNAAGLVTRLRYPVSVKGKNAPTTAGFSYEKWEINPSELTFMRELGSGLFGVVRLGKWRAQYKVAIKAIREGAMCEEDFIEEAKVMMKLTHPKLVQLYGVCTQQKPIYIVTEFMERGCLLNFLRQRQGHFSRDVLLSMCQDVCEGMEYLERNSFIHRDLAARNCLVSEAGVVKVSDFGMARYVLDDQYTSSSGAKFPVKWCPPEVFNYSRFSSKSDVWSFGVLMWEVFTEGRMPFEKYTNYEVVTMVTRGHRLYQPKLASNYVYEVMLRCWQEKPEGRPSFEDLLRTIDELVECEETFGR
Sequence of UniProt O15146 (whole entry, looked up): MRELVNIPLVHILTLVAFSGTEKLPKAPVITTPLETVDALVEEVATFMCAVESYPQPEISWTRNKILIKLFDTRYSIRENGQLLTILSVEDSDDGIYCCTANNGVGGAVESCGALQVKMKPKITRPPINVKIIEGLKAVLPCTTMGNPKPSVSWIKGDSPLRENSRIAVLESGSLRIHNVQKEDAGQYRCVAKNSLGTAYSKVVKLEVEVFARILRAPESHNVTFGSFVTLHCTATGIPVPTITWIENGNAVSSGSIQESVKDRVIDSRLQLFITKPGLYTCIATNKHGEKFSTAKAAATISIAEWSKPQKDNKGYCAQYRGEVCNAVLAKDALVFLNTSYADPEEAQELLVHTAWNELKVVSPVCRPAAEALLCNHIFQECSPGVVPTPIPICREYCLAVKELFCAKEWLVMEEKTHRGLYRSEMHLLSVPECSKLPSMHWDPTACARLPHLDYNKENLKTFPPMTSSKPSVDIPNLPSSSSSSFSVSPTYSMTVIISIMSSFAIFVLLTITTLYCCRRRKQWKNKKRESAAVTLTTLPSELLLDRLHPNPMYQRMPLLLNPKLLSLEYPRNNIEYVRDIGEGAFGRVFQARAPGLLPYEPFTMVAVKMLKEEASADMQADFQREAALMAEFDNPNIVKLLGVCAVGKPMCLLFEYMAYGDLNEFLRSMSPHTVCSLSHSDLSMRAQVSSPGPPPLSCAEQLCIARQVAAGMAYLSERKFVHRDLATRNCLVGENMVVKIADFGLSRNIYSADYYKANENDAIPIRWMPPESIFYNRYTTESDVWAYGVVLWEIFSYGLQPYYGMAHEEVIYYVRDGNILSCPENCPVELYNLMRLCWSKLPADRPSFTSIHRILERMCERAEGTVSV
Sequence of UniProt Q9HBY8 (whole entry, looked up): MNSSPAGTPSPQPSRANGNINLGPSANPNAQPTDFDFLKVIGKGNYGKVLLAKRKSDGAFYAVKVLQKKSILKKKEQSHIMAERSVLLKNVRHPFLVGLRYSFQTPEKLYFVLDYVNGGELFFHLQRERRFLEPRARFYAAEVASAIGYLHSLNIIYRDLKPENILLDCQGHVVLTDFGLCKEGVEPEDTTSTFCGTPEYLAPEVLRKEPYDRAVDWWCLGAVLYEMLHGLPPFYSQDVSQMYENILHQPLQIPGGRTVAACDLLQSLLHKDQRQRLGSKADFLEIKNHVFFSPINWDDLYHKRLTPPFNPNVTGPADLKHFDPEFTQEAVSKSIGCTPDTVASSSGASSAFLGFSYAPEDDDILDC
Sequence of UniProt P11309 (whole entry, looked up): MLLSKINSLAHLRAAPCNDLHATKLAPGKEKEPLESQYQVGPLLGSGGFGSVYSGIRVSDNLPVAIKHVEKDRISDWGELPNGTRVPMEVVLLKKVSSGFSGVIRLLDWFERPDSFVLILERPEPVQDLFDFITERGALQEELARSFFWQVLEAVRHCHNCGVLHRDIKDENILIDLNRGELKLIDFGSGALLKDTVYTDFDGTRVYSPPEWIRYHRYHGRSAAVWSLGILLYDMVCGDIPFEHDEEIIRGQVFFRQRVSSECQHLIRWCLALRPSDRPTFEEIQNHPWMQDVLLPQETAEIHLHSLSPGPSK
Sequence of UniProt P49674 (whole entry, looked up): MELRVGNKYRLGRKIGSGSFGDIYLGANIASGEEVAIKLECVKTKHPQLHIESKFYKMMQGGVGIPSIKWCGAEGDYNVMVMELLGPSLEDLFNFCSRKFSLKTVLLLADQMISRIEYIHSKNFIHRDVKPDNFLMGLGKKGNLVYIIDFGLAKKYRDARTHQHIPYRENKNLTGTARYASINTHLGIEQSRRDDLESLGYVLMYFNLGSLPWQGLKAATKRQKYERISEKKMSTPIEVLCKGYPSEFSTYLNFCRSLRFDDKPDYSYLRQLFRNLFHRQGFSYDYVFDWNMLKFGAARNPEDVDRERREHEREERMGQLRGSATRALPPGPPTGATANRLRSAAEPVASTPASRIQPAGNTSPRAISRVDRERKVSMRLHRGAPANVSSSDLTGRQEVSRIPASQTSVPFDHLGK

Study 1
Structure (SMILES): CC(C)CC(=O)N1CCc2nc(-c3ccc(Br)cc3)nc(N(C)Cc3ccccc3)c2C1
Tested at: 0.1 µM
Endpoint: remaining binding
PAK1 (Homo sapiens, UniProt Q13153); cell-free assay, competition with immobilised ligand: 100%
CDK19 (Homo sapiens, UniProt Q9BWU1); competition binding: 62%
ROS1 (Homo sapiens, UniProt P08922); cell-free assay, competition with immobilised ligand: 100%
BMPR2 (Homo sapiens, UniProt Q13873); cell-free assay, competition with immobilised ligand: 99%
MAP3K13 (Homo sapiens, UniProt O43283); cell-free assay, competition with immobilised ligand: 66%
SNRK (Homo sapiens, UniProt Q9NRH2); cell-free assay, competition with immobilised ligand: 84%

Study 2
SMILES: COc1ccc(-c2c(Nc3ccccn3)[nH]c3c(C4=CCCCC4)c(-c4ccccc4)nn3c2=O)cc1
Technique: immunohistochemistry
Host: human
Matrix: tumour biopsy
Route: oral
Time: cycle 1 day 28
Reading: direction not given
Endpoint: SDMA H-score
200 mg once daily: 1
100 mg once daily: 40
400 mg once daily: 270 and 170 and 100

Study 3
Host: human
Matrix: microsomes or S9
Tested at: 2 µM
Time: 0.5 h
Endpoint: remaining compound
Cc1nc2nc(CCc3ccccc3)nn2c(C)c1Cl: 36.4%
CCc1ccc(C2=NN(c3ccc(S(N)(=O)=O)cc3)C(c3ccc(O)cc3)C2)cc1 (centres unmarked): > 99%
CC(C)(C)OC(=O)NCCNC(=O)Cc1cc(=O)oc2cc(O)ccc12: > 99%
Brc1ccc2nc(-c3cccs3)cn2c1: 41.7%
CC(C)CS(=O)(=O)CC(=O)n1cccc/c1=N\C(C)C: 77.2%
Cc1nc(-c2c[nH]c(C(=O)N3CCOc4cc(F)ccc43)c2)cs1: 104%
Cc1ccc(-c2cn3c4c(sc3n2)C(=O)C(C)(C)CC4)cc1: 7.77%
O=c1c2cc3c(=O)n(-c4ccccc4)ccc3nc2ccn1CCO: > 100%

Study 4
SMILES: Cn1cnc2cc3c(Nc4cccc(Br)c4)ncnc3cc21
Effect on: enzyme activity
Mode: inhibitor
Tested at: 0.5 µM
Baseline: control
Endpoint: remaining activity
DYRK1A (Homo sapiens, UniProt Q13627): 106%
FLT1 (Homo sapiens, UniProt P17948): 77.4%
PIM1 (Homo sapiens, UniProt P11309): 73.8%
TEC (Homo sapiens, UniProt P42680): 123%
Cyclin-dependent kinase 2, with cyclin E (CDK2, Homo sapiens, UniProt P24941): 78.2%
IGF1R (Homo sapiens, UniProt P08069): 102%
PRKCQ (Homo sapiens, UniProt Q04759): 96.9%
SGK2 (Homo sapiens, UniProt Q9HBY8): 104%
MUSK (Homo sapiens, UniProt O15146): 85.3%
CLK1 (Homo sapiens, UniProt P49759): 102%
JAK1 (Homo sapiens, UniProt P23458): 96.4%
MAP3K20 (Homo sapiens, UniProt Q9NYL2): 93.3%
EPHB3 (Homo sapiens, UniProt P54753): 93.8%
TYRO3 (Homo sapiens, UniProt Q06418): 94.5%
PAK6 (Homo sapiens, UniProt Q9NQU5): 95%
CLK2 (Homo sapiens, UniProt P49760): 93.9%
CSNK1E (Homo sapiens, UniProt P49674): 90.3%
PAK1 (Homo sapiens, UniProt Q13153): 91.4%
ACVRL1 (Homo sapiens, UniProt P37023): 102%
EPHA2 (Homo sapiens, UniProt P29317): 81.8%
CAMK1 (Homo sapiens, UniProt Q14012): 106%
SRPK1 (Homo sapiens, UniProt Q96SB4): 96.1%
CAMKK1 (Homo sapiens, UniProt Q8N5S9): 107%
JAK2 (Homo sapiens, UniProt O60674): 103%
SIK2 (Homo sapiens, UniProt Q9H0K1): 101%

Study 5
SMILES: c1ccc2c(-c3nn4c(-c5ccncc5)nnc4s3)c[nH]c2c1
Cell line: HEK293T ATF4-firefly luciferase reporter
Effect on: integrated stress response
Item: ATF4
Baseline: DMSO
Endpoint: reporter signal
1 µM, with: ISRIB: 95.9% and 95.3% and 77.7% and 90.2% and 71.6% and 77.9% and 80.4% and 78%
10 µM, with: ISRIB: 98.6% and 106% and 90.6% and 120% and 109% and 116%
1 µM, without ISRIB: 112% and 157% and 133% and 131% and 122%

Study 6
Target: Diamine acetyltransferase 1 (Homo sapiens, UniProt P21673)
Mode: inhibitor
Tested at: 10 µM
Baseline: control
Endpoint: remaining activity
Target sequence (P21673 1-171): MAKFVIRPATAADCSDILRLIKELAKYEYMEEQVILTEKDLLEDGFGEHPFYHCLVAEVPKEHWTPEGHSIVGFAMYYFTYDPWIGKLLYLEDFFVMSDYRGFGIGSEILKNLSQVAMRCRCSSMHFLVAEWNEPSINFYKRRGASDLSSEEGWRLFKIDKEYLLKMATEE
O=C(O)C=Cc1ccc(O)cc1: 92.6%
COc1ccc([C@@H]2CC(=O)c3c(O)cc(O[C@@H]4O[C@H](CO)[C@@H](O)[C@H](O)[C@H]4O)cc3O2)cc1O: 98.2%
CC(C)(O[C@@H]1O[C@H](CO)[C@@H](O)[C@H](O)[C@H]1O)[C@H]1Cc2cc3ccc(=O)oc3cc2O1: 85.4%
CC(=O)c1cc(O)ccc1O: 94.9%
COc1ccc(-c2cc(=O)c3c(O)c(OC)c(OC)c(OC)c3o2)cc1OC: 85.3%
